Assay results pooled from the literature.
Parts stem from different laboratories: compare values within a part only.

Study 1
Target: Sal-like protein 4, full length isoform B (SALL4, Homo sapiens, UniProt Q9UJQ4-2, residues 1-616)
Method: universal PBM
Form: double-stranded DNA, one strand shown
Sample: in vitro
Concentration: not given
Notes: 8-mer, flanks averaged, mean of replicates
Direction: higher = stronger binding
Oligonucleotide | E-score
CTATCGGC | -0.0932
GCGAGTCC | -0.155
GATTAACC | -0.111
TGGGCCAA | -0.112
CTCCCGCC | -0.239
AGCTCCCG | -0.353
ACCTTTGG | -0.12
ATACTCCA | 0.161
ATCAAGGA | 0.136
ACATGCGA | 0.0638
GCACGCAC | -0.218
CCCTTTAA | -0.00227
AATAAAGA | 0.295
CTGTACTA | -0.00679
GGGCTGAC | -0.221
GGAGGGCA | -0.0836
ATAACAAC | 0.267
CTGAATAA | 0.178
AGATATTG | 0.321
CTTAAGGC | -0.174
ATGACATC | 0.156
CGTCATAG | 0.0533
AAAGAGCT | -0.167

Study 2
Target: Histone acetyltransferase KAT6A, winged helix 1, GST fusion (KAT6A, Homo sapiens, UniProt Q92794, residues 1-85)
Method: protein binding microarray
Form: double-stranded DNA, one strand shown
Sample: in vitro
Concentration: not given
Notes: 8-mer, flanks averaged, mean of 2 arrays, mostly near background
Baseline: not given
Direction: higher = stronger binding
Construct (chain): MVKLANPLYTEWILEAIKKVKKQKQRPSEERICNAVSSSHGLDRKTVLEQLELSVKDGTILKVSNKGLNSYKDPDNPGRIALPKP
Oligonucleotide | E-score
AAGAGCAC | -0.162
CAAGCTTA | 0.0314
CGTTTAAG | 0.11
GAGCATTA | -0.0456
ACACAGCG | 0.275
AAAGAGCC | -0.000965
CACTATAG | -0.138
ATGTCGAC | -0.236
AACTCTTA | -0.129
CTTGTATA | -0.107
AAGACTAA | -0.156
CGAGAACG | 0.102
CGCATATC | 0.204
AAGTACCT | -0.0773
ACGTCATC | 0.0314
AGGTCGAG | -0.119
CTGTACCA | -0.131
AATCTAGG | -0.121
GGCCGAAA | 0.144
ATGGCCTC | -0.286
AGAAGACA | -0.306
GAGTGTCA | -0.0764
GGATGCGA | 0.142
ACCTGATG | -0.0495
GCTGAGAA | -0.259

Study 3
Target: Fragile X messenger ribonucleoprotein 1, C-terminal low-complexity region (Fmr1, Mus musculus, UniProt P35922)
Method: RNA Bind-n-Seq
Form: RNA
Sample: in vitro
Concentration: 200 nM
Notes: whole 134-nt RNA, ends assumed
With: 150 mM LiCl
Baseline: input library
Direction: higher = stronger binding
Each molecule: 7-deaza-guanosine replaces G
All sequences stand within: GGGAGUUCUACAGUCCGACGAUC … UGGAAUUCUCGGGUGUCAAGG
Oligonucleotide | log2 enrichment
CCUGUGCUACACAUCGUAUGUACCGAAUCGGGUUUUUGGGAAAAAAAGGGAAAAAAAGGGAAAGUAUUAUGUUACGCCGUUCGGAUCUGC | -1.87
AAGUCCUGUGCUACACAUCGUAUGUACCGAAUCGGGGAAAAAGGGGAGGGGUGGGGAAAGUAUUAUGUUACGCCGUUCGGAUCUGCACUU | -0.156
ACCAUGCAGGUGGGCAUCUUUGGGAAGUGUGGCAAGGGGGGGAUAGGGAGGGGGGUAACACUUUGGGAACAGGUGGUCCCAGGUCGUUUC | 1.41
CCUGUGCUACACAUCGUAUGUACCGAAUCGGGGAAAAAAGGAAAAAAGGGGAAAAAAGGGAAAGUAUUAUGUUACGCCGUUCGGAUCUGC | 0.147
UCAAGUCCUGUGCUACACAUCGUAUGUACCGAAUCGGGGUUGGGGUUGGGUUGGAAAGUAUUAUGUUACGCCGUUCGGAUCUGCACUUCC | -0.789
CUCAAGUCCUGUGCUACACAUCGUAUGUACCGAAUCGGGCCGGCCGGGCCGGGGAAAGUAUUAUGUUACGCCGUUCGGAUCUGCACUUCC | 0.527
UGUGCUACACAUCGUAUGUACCGAAUCGUGUGUGUGUGUGUGUGUGUGUGUGUGUGUGUGUGUAAAGUAUUAUGUUACGCCGUUCGGAUC | 0.217
AGUCCUGUGCUACACAUCGUAUGUACCGAAUCGGGAAAAAAAGGGUGGGAAAAAGGGAAAGUAUUAUGUUACGCCGUUCGGAUCUGCACU | -1.18

Study 4
Target: Interferon regulatory factor 7, full length, phosphomimetic (IRF7, Homo sapiens, UniProt Q92985, residues 1-503, S471D/S472D/S475D/S476D/S477D/S483D/S484D/S487D)
Sequence of UniProt Q92985 (whole entry, unmodified, looked up): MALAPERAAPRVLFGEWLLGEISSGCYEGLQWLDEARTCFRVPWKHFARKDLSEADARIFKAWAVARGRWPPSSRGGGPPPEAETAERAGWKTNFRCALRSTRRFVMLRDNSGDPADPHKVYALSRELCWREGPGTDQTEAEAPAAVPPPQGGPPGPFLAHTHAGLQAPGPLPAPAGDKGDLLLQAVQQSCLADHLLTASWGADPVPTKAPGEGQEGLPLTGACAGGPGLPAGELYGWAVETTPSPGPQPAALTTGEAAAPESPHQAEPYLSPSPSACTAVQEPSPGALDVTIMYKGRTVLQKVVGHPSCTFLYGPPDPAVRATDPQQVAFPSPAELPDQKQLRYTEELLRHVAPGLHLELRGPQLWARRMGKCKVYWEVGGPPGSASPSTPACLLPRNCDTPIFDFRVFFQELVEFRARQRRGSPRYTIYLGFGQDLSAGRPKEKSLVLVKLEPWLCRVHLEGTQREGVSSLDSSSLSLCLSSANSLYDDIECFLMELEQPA
Method: protein-binding microarray
Form: double-stranded DNA, one strand shown
Sample: in vitro
Concentration: 2200 nM top
Notes: 60-bp whole probe
With: salmon DNA 0.4 mg/ml
Baseline: random background probes
Direction: higher = stronger binding
All sequences stand within: GCCTAGCAC … GTCTTGATTCGCTTGACGCTGCTG
Oligonucleotide | fitted relative affinity [z-score]
TCAGATATGCCAAATCTGACTGTGCTA | 0.278
GACGATATCAGACTGGACACGTGCTAG | 0.255
TCAGGTCTCCTACTGCTTTAGTGCTAG | 0.925
TCATTAATGCTTCTGGAACTGTGCTAG | 0.587
GACGATATAAGTCTCGAGACGTGCTAG | 0.0873
CCATCTCTCAAAAGTCACCCTGTGCTA | 0.763
TTAGGTCTCCTTATCCGTTAGTGCTAG | 0.991
TTAGGTCTCCTTGTCCTTTAGTGCTAG | 0.986
GACGGACTGTACACTGGGGACGTGCTA | -0.318
CTGTTTTTCCCCTGCACTCAGTGCTAG | 2.79
AACGGTCTCCTTTTCCTGACGTGCTAG | 1.45
TTGTGTTTTCATTTTATGACGTGCTAG | 4.77
GACGGTTTCGCCACTGGGGACGTGCTA | 1.58
TTAGGTTCCGGTTTCGGTCAGTGCTAG | 5.9
TCATGTCTGGATGTGCCACTGTGCTAG | 0.716
TCACATATACACATCTTACTGTGCTAG | 1.31
GACAGTTTCCTTTCCCTGACGTGCTAG | 5.54
GAAGGTATCGACTTTCGGGACGTGCTA | 2.95
TCAATTAGAATTTTCATACTGTGCTAG | 0.414

Some of these lines once more (study 4):
Oligonucleotide | fitted relative affinity [z-score]
TCATGTCTGGATGTGCCACTGTGCTAG | 0.716
CCATCTCTCAAAAGTCACCCTGTGCTA | 0.763
TCAGATATGCCAAATCTGACTGTGCTA | 0.278
GACGATATAAGTCTCGAGACGTGCTAG | 0.0873
TTGTGTTTTCATTTTATGACGTGCTAG | 4.77
TCAGGTCTCCTACTGCTTTAGTGCTAG | 0.925
